Experimental data gathered from unrelated publications.
Each numbered part is a random draw from the data of one study; scales do not carry over between parts. Positions count from the first letter of the parent shown.
Sequence of UniProt Q9C0C9 (whole entry, looked up): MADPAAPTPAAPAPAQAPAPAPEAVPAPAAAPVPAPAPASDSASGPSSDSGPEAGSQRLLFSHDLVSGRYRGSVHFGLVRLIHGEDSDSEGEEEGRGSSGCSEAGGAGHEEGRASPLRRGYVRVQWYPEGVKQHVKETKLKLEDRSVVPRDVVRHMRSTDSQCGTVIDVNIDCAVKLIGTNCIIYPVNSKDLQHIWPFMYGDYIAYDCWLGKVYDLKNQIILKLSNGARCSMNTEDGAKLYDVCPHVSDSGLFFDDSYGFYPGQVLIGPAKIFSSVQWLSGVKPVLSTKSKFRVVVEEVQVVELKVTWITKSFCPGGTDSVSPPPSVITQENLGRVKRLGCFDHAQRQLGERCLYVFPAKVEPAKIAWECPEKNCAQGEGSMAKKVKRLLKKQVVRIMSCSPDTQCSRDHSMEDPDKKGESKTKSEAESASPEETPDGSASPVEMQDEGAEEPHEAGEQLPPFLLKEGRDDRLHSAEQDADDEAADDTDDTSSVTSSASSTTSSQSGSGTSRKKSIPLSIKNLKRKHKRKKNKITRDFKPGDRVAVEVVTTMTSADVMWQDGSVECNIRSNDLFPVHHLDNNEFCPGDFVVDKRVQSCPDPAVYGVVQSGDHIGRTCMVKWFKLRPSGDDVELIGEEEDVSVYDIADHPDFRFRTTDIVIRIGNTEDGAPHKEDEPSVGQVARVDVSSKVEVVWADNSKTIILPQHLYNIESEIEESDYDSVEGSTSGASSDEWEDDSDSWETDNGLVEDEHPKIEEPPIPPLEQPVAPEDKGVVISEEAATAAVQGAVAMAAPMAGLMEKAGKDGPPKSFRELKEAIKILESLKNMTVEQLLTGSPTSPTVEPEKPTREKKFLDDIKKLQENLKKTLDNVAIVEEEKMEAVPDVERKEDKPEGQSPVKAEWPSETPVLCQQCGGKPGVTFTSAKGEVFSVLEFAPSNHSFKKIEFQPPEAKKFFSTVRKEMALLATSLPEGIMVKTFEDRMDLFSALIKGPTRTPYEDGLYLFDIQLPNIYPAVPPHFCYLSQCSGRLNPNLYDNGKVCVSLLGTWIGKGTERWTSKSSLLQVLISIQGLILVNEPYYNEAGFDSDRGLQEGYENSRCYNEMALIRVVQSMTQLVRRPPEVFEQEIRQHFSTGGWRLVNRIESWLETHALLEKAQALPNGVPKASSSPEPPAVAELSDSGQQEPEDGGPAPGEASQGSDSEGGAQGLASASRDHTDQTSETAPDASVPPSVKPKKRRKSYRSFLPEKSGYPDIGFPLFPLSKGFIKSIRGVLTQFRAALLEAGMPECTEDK
Sequence of UniProt Q7Z7E8 (whole entry, looked up): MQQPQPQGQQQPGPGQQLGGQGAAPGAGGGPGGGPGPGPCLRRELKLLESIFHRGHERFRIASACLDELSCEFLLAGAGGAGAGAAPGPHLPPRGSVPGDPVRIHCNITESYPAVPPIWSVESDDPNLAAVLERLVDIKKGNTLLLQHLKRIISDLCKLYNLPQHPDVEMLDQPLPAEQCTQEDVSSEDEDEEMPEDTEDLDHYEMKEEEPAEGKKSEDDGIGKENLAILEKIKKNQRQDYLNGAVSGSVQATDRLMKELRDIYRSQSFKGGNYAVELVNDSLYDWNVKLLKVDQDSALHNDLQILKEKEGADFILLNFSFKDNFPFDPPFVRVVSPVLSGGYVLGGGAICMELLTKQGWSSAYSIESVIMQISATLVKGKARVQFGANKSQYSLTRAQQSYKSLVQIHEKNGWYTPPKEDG
Sequence of UniProt P68036 (whole entry, looked up): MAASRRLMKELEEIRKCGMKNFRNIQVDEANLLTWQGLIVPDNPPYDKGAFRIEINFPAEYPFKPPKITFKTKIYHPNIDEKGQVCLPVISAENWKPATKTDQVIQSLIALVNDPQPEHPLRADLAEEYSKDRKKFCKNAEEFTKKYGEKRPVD
Sequence of UniProt Q969T4 (whole entry, looked up): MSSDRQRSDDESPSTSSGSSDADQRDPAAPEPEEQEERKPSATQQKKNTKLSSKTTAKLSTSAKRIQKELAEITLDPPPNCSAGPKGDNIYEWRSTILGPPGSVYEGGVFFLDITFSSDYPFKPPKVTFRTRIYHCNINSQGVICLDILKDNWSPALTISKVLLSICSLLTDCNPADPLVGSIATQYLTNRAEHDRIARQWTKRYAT
Sequence of UniProt P51668 (whole entry, looked up): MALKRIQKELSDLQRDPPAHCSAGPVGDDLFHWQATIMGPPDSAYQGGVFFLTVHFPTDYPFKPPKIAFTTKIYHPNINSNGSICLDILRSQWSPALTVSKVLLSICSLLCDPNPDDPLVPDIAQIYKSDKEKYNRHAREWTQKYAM
Sequence of UniProt Q9Y2X8 (whole entry, looked up): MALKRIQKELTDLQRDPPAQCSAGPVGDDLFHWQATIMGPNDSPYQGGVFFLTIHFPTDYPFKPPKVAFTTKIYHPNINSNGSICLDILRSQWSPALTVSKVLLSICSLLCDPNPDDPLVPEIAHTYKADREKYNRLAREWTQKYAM
Sequence of UniProt Q8N2K1 (whole entry, looked up): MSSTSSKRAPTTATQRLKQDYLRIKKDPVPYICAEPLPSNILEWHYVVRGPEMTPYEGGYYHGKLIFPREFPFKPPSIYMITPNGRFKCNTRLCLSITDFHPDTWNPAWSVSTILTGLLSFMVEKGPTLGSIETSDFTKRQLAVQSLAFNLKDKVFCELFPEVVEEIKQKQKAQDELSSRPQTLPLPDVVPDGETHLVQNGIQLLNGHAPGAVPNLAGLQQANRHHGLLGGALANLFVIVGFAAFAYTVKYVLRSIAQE

Series 1
Target: CCNB1, cyclin fold, Cln2 fusion (human)
Method: yeast growth competition, sequencing
Matrix: yeast
Notes: weak parent motif
Relative to: not given
Reading: higher = stronger binding
Starting sequence: ORC1 docking peptide (human); PRARKRLELGNLG
Variant	normalised enrichment score
PIARKRLELGNLG [R2I]	0.915
PRARKRSELGNLG [L7S]	0.643
PRARKRLELGNVG [L12V]	0.174
PRARKRLELFNLG [G10F]	0.487
PRAVKRLELGNLG [R4V]	0.307
PRARKRLELGDLG [N11D]	0.822
PRARWRLELGNLG [K5W]	0.671
PRARKRLELYNLG [G10Y]	1.98
DRARKRLELGNLG [P1D]	1.14
PRARKRLELGCLG [N11C]	1.16
PRARKRLNLGNLG [E8N]	0.903
PRARKRLELGNTG [L12T]	0.618
PRARKRLELGWLG [N11W]	0.755
WRARKRLELGNLG [P1W]	1.38
PRARKRLELGELG [N11E]	0.00872
PRAQKRLELGNLG [R4Q]	0.189
RRARKRLELGNLG [P1R]	0.562
VRARKRLELGNLG [P1V]	-0.152

Series 2
Target: ABI1, truncated, D143A, DHFR fusion (Arabidopsis thaliana)
Method: DHFR PCA, deep sequencing
Matrix: yeast
Notes: methotrexate growth selection, single substitutions
With: (+)-ABA 200 µM
Relative to: wild-type fitted maximum
Reading: higher = stronger binding
Starting sequence: PYL1, truncated, DHFR fusion (Arabidopsis thaliana); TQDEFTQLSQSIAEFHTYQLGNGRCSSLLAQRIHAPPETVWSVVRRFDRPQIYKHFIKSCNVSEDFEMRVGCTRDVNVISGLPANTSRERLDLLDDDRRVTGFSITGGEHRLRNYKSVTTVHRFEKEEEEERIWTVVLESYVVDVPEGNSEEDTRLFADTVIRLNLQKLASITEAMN
Variant	relative binding score [%]
K116R	107
H16M	-11
Q10P	94.5
G23V	69.8
P37E	86.8
T86S	102
N165K	40.7
K168R	96.3
D75K	104
R74C	-3.58
P37W	65.4
T119H	16
G107N	84.9
V161L	89.3
R113Q	108
W134R	86.9

Series 3
Sequence: B1 (RNF181 RING domain)
Method: yeast two-hybrid
Matrix: yeast
Notes: mostly zero background
Relative to: not given
Reading: higher = stronger interaction
B1: RNF181 RING domain (UniProt Q9P0P0); chain VIRGSQAELKCPVCLLEFEEEETAIEMPCHHLFHSSCILPWLSKTNSCPLCRYELPTDDDTY
target	lacZ reporter activity
UBE2Q1 UBC core domain (UniProt Q7Z7E8)	0
UBE2J2 UBC core domain (UniProt Q8N2K1)	11800
UBE2I UBC core domain (UniProt P63279)	0
UBE2L3 UBC core domain (UniProt P68036)	0
UBE2D4 UBC core domain (UniProt Q9Y2X8)	12100
UBE2E3 UBC core domain (UniProt Q969T4)	8830
UBE2O UBC core domain (UniProt Q9C0C9)	0
BIRC6 UBC core domain (UniProt Q9NR09)	0
UBE2D1 UBC core domain (UniProt P51668)	12300

Series 4
Target: RING finger protein unkempt homolog, zinc fingers 1-6, SBP tag (UNK, Homo sapiens, UniProt Q9C0B0, residues 30-357)
Sequence of UniProt Q9C0B0 (30-357, looked up): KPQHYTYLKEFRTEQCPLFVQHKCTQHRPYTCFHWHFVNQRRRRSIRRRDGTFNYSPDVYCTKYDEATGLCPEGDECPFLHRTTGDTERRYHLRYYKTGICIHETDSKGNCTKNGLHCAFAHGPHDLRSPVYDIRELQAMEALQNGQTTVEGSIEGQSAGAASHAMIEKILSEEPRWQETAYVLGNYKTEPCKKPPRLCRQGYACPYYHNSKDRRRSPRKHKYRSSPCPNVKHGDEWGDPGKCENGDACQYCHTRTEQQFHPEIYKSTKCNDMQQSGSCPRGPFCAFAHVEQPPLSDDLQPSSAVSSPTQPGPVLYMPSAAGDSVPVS
Method: RNA Bind-n-Seq
Form: RNA
Matrix: in vitro
Concentration: 100 nM
Notes: RNA with constant flanks, vertebrate orthologous sites, ends assumed
Relative to: input RNA pool
Reading: higher = stronger binding
Shared flanks, not repeated: GGGAGUUCUACAGUCCGACGAUC … CAACAGAGGAUUGAGCAUCA
Strand	bound/input enrichment [ratio]
UACUUCUGGUGAUAUCUGGCCUGGCCUUUCAGCUUAUGAUAAUAGUCCCAGAUCACCCCAUAGUCCUUCACCGAUUGCUACUCCACCUAGUCAGAGUUCAUCUUGUUCUGAUGCUCCCAU	0.946
UGGGUUACUCCUAUUAUUAUCAAGUAGCUGGAAUUGUGAAGGUCGGAGUAGUUAGAUCUUUAGCUUUUGUUCCUUAUUUUUUUGUAUUACUAUCCAUGUGUAUAAAUUAUUGAUCAUGUU	1.83
UGAGUGUUGGAAGAAUAGCAUAUGAGGUUGUGGUCAAAAAGUAGGAGCAGCAGGGGAGAGAAGAUACAGGUAUCAACAGCCAGGUGGUAAAAGGUGCAGAUGAAGGUCACUGAAACUCAA	0.487
AUAAUCACUCUAAUUGUAAUCUGAAGAAAGUGUAACAUUGUGUAGCCUUUUUUGUAUAAAAUAGACAAAUAGAAAUGGUCCAAUUAGUUUCCUUUUUAAUAUGCUUAAAAUAAGCAGGUG	1
CAGCCAACUCCCUGAUCGGCCGGGCCGCCCACAUCGCCGUGCUCGAUUCUGAGAUCUUCCUGGAGAAGUUCUUCCUAGUUGCGGGCCUCAAGUUCUUUCAGUAGAACUGUGGCAGGAUCA	0.887
AGCAACCCAAGGAUUCAGGACUGGUUUUACAAAUAUACCAAGUCGAUAUGGAACUAACAGUAGAAUUGGACAACCAAGACCAUGAUGUUCUCUAACUUAUUUUUAUGAGGAAUACUGACU	0.348
CUUAAUUAGAGGACAAUAUAUGUUUCAUAAGGAAGAGUCUUUAUAAUUUUGUUUGUCAGAUAGUAUUUUGGAAUUUGUAUAAUGAGGAUGUUUAGAAGCCAUAUAAGUGGCUUUUUUUUU	0.442
UCCUCAACGUGUUCGAGCUUGUGAUCCUUCAAAGAUGGGUUAUGCGUUAAUUCUAGGUACUAGAAAUGUUUACUUCUCUCUUUCCACUGAUCAGAGAAACAGGCAUCAAAAACAGAAAUA	0.442
AGUACUUAAGCCAAGAGUGAUUCUAAAAUACUAUUUAUUUGUGUUCUGUACGUUGGUACAUAACACCAUCAACCUCACACUGUUCUUGAAUUUUUAUUUUUUUGAAGGUUGGGGGUGAGU	0.418
GCACUACCUAUACCAAUUUUACAACAUUGAAUGCAAAAUAGCGAAUUUCAUAGUCACAGAGGAAGGUAGCUUUAGGGAAUUGUCUCCAUGGAUUUUACUCGUGUAGGUUUUGAAACUGUA	0.954
UCCCCGUUACCCCUAAAGUAGAACAUUUUUUAAAUUGUGUUGCCACCACUUCUAAAAAUUUAGCAACAUUAGAAUAGGACACUAAUGAAGUAAGAAAUUUUGCUUGUUAUUUUGCAAUCC	4.9

Series 5
Target: Histone acetyltransferase KAT6A, winged helix 2, GST fusion (KAT6A, Homo sapiens, UniProt Q92794, residues 85-181)
Method: protein binding microarray
Form: double-stranded DNA, one strand shown
Matrix: in vitro
Concentration: not given
Notes: 8-mer, flanks averaged, mean of 2 arrays, mostly near background
Relative to: not given
Reading: higher = stronger binding
Target sequence (chain): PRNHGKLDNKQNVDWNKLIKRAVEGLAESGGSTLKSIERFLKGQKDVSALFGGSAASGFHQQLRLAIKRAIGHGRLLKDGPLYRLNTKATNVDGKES
Strand	E-score
ATTCATCC	0.0347
ATCTTTTC	-0.106
CACTCGGA	0.19
TATTTCAA	0.0201
AGGGCACT	-0.135
AACGATGT	-0.091
AGACTCCT	-0.147
GCCTAAGA	-0.0339
GTAACGAC	-0.101
GTAGGGGA	0.0531
GTGTTAAA	-0.0345
GTCGGATA	-0.0251
CCCCCGAG	0.0332
CGGAGGAC	0.13
CGCAGCAA	0.0807
CGATCACC	0.0549

Series 6
Target: NFE2L2, bZIP domain (human)
Method: DHFR protein complementation
Matrix: yeast
Notes: single substitutions, most at no-binding floor
Relative to: wild-type JUN-FOS pair
Reading: higher = stronger binding
Starting sequence: JUN, bZIP domain (human); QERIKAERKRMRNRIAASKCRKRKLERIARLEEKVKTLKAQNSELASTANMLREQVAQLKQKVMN; partner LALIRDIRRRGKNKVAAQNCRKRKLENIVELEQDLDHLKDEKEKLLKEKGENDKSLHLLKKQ
Variant	binding fitness
A40R	-1.34 natural log
V35M	-1.5 natural log
M51Q	-1.6 natural log
V35W	-1.53 natural log
E33K	-1.16 natural log
N42P	-1.47 natural log
A57V	-1.17 natural log
L45V	-1.47 natural log
R30K	-1.33 natural log
T37S	-1.58 natural log
A49S	-1.45 natural log
K36C	-1.36 natural log
E32Q	-1.54 natural log
N42F	-1.28 natural log
N42A	-1.5 natural log
V56K	-1.53 natural log
N42T	-1.33 natural log
N42E	-1.48 natural log
L31T	-1.53 natural log
L38E	-1.51 natural log
A46I	-1.32 natural log
L45C	-1.55 natural log
E33T	-1.38 natural log
L52P	-1.49 natural log
L31R	-1.46 natural log

For quick reference, copied from above (series 1):
Variant	normalised enrichment score
PRAVKRLELGNLG [R4V]	0.307
DRARKRLELGNLG [P1D]	1.14
PRARKRLELGCLG [N11C]	1.16
PRAQKRLELGNLG [R4Q]	0.189
PRARKRLELFNLG [G10F]	0.487
PRARKRLELGDLG [N11D]	0.822
WRARKRLELGNLG [P1W]	1.38
